Results pooled from the literature.
Numbered parts are unrelated; each lists some results of a single study.
UniProt Q9XFM0, sequence (whole entry, looked up): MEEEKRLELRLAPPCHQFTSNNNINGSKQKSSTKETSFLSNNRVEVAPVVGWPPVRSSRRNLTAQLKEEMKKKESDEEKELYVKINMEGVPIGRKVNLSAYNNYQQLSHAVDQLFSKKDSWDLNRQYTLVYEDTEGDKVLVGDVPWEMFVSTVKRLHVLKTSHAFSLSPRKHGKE
UniProt Q9ZTX8, sequence (whole entry, looked up): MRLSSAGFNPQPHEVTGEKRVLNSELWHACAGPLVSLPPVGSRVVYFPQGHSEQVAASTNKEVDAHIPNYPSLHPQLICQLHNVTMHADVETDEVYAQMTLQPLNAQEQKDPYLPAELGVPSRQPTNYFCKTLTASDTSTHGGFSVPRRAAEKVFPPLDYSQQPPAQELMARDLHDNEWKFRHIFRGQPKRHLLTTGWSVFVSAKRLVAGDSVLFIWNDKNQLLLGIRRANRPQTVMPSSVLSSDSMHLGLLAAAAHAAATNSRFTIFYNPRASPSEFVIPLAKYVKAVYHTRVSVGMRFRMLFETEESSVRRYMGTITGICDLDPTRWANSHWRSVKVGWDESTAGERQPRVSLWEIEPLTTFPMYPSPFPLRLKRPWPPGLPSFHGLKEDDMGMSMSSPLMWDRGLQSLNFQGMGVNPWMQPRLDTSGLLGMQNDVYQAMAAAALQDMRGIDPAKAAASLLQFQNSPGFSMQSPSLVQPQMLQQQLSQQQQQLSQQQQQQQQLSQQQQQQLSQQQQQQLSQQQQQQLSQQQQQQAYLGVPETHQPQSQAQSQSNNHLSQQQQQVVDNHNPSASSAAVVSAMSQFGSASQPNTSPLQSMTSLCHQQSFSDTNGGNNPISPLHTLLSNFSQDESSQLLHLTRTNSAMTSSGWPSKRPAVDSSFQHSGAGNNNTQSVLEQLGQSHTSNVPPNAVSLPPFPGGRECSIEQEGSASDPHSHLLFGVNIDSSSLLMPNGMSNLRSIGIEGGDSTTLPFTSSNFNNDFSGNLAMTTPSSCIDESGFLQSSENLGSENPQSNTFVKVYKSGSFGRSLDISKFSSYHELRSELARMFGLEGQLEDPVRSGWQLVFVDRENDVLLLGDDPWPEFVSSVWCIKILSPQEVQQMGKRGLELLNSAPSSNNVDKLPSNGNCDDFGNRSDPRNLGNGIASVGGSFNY
UniProt Q9ZTX9, sequence (whole entry, looked up): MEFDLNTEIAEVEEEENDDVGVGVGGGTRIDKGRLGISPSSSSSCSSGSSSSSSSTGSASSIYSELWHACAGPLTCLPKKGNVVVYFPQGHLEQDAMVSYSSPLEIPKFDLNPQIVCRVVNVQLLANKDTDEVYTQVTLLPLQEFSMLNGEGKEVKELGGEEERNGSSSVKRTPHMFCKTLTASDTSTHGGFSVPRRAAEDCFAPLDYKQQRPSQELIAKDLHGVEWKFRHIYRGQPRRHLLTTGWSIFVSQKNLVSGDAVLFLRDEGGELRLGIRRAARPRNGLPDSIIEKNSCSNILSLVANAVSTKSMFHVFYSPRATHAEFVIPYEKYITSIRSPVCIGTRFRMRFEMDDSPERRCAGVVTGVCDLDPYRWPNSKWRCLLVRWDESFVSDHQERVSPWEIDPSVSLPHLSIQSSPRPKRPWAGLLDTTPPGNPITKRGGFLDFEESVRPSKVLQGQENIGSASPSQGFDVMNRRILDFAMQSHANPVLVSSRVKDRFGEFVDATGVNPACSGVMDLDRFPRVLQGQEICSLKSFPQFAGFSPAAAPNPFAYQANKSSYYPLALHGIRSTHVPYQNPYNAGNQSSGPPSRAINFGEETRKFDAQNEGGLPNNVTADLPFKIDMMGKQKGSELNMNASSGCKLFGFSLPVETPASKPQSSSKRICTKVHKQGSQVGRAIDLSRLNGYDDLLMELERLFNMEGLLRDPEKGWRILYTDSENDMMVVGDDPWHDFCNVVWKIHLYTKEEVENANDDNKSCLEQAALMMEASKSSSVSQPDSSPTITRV
UniProt Q94JM3, sequence (whole entry, looked up): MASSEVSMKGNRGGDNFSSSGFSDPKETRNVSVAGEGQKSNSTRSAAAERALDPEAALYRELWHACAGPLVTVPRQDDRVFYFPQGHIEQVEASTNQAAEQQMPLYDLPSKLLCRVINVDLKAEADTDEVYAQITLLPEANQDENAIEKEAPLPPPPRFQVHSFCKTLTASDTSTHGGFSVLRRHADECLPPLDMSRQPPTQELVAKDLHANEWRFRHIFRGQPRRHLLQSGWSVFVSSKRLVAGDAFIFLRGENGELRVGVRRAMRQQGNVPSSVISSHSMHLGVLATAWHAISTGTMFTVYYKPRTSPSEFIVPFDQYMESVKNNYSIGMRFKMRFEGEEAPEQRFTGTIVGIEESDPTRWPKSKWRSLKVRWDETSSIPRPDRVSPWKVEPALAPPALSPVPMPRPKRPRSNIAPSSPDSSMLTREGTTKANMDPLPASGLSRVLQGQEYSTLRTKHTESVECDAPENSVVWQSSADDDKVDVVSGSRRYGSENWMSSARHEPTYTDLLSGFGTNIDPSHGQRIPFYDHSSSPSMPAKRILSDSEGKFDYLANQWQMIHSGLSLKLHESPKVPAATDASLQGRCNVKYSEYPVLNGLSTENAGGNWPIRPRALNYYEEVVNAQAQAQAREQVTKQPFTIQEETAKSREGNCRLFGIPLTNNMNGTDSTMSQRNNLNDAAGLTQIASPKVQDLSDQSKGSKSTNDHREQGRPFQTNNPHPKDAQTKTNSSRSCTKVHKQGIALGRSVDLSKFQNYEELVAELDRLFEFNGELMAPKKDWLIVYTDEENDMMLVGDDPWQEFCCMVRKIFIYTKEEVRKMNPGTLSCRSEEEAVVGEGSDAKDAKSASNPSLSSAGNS
UniProt Q9FKM7, sequence (whole entry, looked up): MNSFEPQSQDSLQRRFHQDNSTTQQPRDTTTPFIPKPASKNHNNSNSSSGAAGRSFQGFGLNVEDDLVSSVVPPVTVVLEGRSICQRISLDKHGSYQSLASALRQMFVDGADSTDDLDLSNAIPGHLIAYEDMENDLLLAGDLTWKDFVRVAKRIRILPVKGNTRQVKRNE
UniProt O23661, sequence (whole entry, looked up): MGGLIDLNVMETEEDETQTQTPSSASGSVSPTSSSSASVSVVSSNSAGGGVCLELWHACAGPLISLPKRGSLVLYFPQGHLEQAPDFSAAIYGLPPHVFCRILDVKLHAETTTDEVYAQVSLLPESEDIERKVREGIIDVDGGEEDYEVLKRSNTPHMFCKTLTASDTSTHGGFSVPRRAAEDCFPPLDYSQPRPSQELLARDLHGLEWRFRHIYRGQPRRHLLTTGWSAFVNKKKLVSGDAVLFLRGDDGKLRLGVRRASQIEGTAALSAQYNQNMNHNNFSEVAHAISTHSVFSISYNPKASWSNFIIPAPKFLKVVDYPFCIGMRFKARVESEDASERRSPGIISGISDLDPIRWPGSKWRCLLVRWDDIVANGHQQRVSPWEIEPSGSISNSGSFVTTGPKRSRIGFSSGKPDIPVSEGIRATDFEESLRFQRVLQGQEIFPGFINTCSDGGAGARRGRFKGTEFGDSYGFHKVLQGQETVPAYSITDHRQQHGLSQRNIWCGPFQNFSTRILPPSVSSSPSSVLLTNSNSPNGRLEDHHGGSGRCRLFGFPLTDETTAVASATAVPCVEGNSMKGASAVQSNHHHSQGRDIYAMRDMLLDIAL
UniProt Q9XED8, sequence (whole entry, looked up): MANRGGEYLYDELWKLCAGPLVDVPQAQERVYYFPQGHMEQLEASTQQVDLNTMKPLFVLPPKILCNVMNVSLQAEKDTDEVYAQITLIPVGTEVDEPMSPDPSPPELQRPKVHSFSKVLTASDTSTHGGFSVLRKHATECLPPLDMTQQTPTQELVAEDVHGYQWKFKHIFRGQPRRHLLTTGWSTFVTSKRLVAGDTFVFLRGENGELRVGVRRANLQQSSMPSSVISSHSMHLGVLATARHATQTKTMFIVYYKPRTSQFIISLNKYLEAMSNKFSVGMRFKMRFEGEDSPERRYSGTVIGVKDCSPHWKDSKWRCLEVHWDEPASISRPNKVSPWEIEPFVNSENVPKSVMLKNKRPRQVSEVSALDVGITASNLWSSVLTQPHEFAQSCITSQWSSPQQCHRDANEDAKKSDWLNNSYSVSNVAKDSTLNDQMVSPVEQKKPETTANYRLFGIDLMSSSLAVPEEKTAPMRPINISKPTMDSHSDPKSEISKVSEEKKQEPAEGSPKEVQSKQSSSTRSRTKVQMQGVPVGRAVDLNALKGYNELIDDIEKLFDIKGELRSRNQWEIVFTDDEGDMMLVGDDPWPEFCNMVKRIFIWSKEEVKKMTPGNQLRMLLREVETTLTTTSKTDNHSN

Series 1
Target: Phosphate system positive regulatory protein PHO4, full length, GST-tagged (PHO4, Saccharomyces cerevisiae, UniProt P07270, residues 1-312)
Technique: competition protein-binding microarray
Form: double-stranded DNA, one strand shown
Sample: in vitro
Tested at: 2 µM
Setting: whole 60-bp probe, lowest competitor level
Together with: Cbf1 competitor, 0.05 µM
Direction: higher = stronger binding
Shared flanks, not repeated: … GTCTTGATTCGCTTGACGCTGCTG
Residues (chain): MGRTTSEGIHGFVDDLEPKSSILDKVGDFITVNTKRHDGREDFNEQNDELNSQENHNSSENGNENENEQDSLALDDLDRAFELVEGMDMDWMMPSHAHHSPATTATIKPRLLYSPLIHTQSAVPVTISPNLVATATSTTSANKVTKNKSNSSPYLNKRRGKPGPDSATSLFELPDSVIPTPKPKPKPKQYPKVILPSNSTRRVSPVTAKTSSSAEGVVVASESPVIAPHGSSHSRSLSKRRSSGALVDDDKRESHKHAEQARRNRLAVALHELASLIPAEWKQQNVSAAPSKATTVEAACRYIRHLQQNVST
| Strand | fluorescence intensity |
| --- | --- |
| AGGGCGAGGGTGATACTCGTGGGTATGTTTCAATGC | 10800 a.u. |
| CATACCCAACCTTGTGTAGTGGGTGAAGATATTTGT | 5030 a.u. |
| AACCCCCAAAGTTGTCATGTTAAGGAGGGCATTTTT | 3470 a.u. |
| CTAGTACAGTTCATGATGGTGTGCCATCTGTACAAT | 5570 a.u. |
| CACAGACCTTACTTCCACGTTAGTGTCATCGAAGAT | 6120 a.u. |
| TGCGCAACAACTTGGCGAGTGGGTGTATGTCTAGAA | 5130 a.u. |
| CATACCCCTCAGTTCCACGGGGTAAAAAAAAAACTT | 7490 a.u. |
| CTTCTTGTCACCGCTCCCGTGAACGGCCCATGCTAC | 6150 a.u. |

Series 2
Target: RING finger protein unkempt homolog, zinc fingers 1-6, GST-SBP tag (UNK, Homo sapiens, UniProt Q9C0B0, residues 30-357)
Technique: RNA Bind-n-Seq
Form: RNA
Sample: in vitro
Tested at: not given
Setting: RNA with constant flanks, ends assumed
Baseline: input RNA pool
Direction: higher = stronger binding
Shared flanks, not repeated: GGGAGUUCUACAGUCCGACGAUC … CAACAGAGGAUUGAGCAUCA
Residues (chain): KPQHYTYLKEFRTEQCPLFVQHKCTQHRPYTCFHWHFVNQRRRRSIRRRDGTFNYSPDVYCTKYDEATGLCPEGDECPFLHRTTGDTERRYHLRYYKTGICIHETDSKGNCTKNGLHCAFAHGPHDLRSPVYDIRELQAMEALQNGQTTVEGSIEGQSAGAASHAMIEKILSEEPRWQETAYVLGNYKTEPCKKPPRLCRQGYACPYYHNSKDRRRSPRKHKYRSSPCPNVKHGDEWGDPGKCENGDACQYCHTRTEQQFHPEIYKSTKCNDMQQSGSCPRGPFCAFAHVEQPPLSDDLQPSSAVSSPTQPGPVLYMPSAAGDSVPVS
| Strand | bound/input enrichment [ratio] |
| --- | --- |
| UUUAUAUUUAACUAAAUGUAAGGUACGAACUAUGACAUAUUAAACUUUUCUUGCCCUUCCCCGUUCUGAGGUAGAUGUGCACAUAUCUGCCACCACAUUCCAUAUGUGUUGAGUAGUUAA | 0.572 |
| UUGAUCAAGUUUUAUAAAUGCCAUUCAUAGGAGCUGUGAUUCUGGCAAAUUAAAGUAAUUCACCGUUUUCUGCAAUUUGAAAUAAAAGCAUUUCCAACUUCUAGAUUAUCAUUUUAUAAA | 0.827 |
| CGGGAUGAGGAGGUCAGCUCUGCUGACAUCAGUAGUUCGUCUGAAGUGAUUUCGCAGCACCCCGUAUCUUACAGGAACAUCGAAGAGCUUCAGCAGCAGAAUCAGCGUCUGCUAUUCGCU | 0.114 |
| UGCCACCGCCGCUGCUGCCGCCGCCGCCGCCGCCGCCGCCGCUGCGACCUCCGCGUUCGGCCGCCGAAUUUGGAAUCCCUGCACCGGGCUAACAAUGAAGCAGAGUUCCAACGUGCCGGC | 0.661 |
| GAUCUUGGACUUGAUAUUGGUGCCCAGGGAGAACCCCUUGGAUAUCGCCAGGAUGAUCCCCGCUAUCGUUCUUUUCACUCUGGUGGAUAUGGCCAGGAUGCCUUGGGUAUGGACCCCAUG | 0.0917 |
| CACACAAGUAUGAAGUUUCUUUCAGGUGUAAAUAAUGAAAAAUAAAUGCCUCAUAAAUGACCGUACAAUGUAACUAUCAAAGUUUUAUAAUUCAUUAUGAGUUAACCAUUUUAAUGUUUC | 0.225 |
| GGAAUAUUCAUUGUACUGAAUAUUACCCUUGUGCUUGCCGCUGUAUUUAAACUUGAAACAGACCGAAGUAUAUGGCCCUUGAUAAGAAUCUAUCGGGGUGGCUUUCUUCUGAUUGAAUUC | 0.106 |
| CCAUCCCUCAGUGACAGUAUGCCUUCUGUAGCAGAUUCUCACUCUAGUCAUUUUUCUGAAUUCCGUUGUUCUGACCUAGAAAGCAUGAAAACUUCUUGUAGUCAUGGUUCCAGUGAUUAU | 8.24 |

Series 3
Substance: IAA26 (Arabidopsis thaliana, UniProt Q8LAL2)
UniProt Q8LAL2, sequence (whole entry, looked up): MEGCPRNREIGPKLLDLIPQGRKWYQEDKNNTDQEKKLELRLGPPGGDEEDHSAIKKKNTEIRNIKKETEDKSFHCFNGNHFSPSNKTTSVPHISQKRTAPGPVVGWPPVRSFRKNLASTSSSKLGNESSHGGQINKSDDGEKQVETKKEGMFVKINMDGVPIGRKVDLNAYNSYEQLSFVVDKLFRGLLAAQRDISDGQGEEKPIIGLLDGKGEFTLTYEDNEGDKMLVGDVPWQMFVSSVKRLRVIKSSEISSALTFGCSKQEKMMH
Technique: two-hybrid
Direction: higher = firmer interaction
| partner | setting | baseline | positive tests |
| --- | --- | --- | --- |
| ARF1 538-665 (Arabidopsis thaliana, UniProt Q8L7G0) |  | out of 4 tests | 0 |
| ARF4 660-788 (Arabidopsis thaliana, UniProt Q9ZTX9) |  | out of 2 tests | 0 |
| ETT (Arabidopsis thaliana, UniProt O23661) |  | out of 2 tests | 0 |
| ARF6 790-935 (Arabidopsis thaliana, UniProt Q9ZTX8) |  | out of 2 tests | 1 |
| ARF9 519-638 (Arabidopsis thaliana, UniProt Q9XED8) | weak activation fusion | out of 2 tests | 2 |
| IAA28 (Arabidopsis thaliana, UniProt Q9XFM0) |  | out of 4 tests | 2 |
| ARF2 727-859 (Arabidopsis thaliana, UniProt Q94JM3) |  | out of 4 tests | 0 |
| IAA33 (Arabidopsis thaliana, UniProt Q9FKM7) |  | out of 4 tests | 1 |

Other studies, line by line
| Sequence | target | effect on | form | tested at | measurement | result |
| --- | --- | --- | --- | --- | --- | --- |
| QVKRREGMF | HLA class I histocompatibility antigen, A alpha chain, allele A*80:01 (Homo sapiens, UniProt P04439) | peptide-MHC binding | peptide | concentration not given | binding | inactive |

Repeated from above (series 1):
| Strand | fluorescence intensity |
| --- | --- |
| CATACCCAACCTTGTGTAGTGGGTGAAGATATTTGT | 5030 a.u. |
